Measured values pooled from the literature.
Compare with care: the assays were run in different laboratories. “And” joins repeats or separate records; there may be more than shown. Numbers after ± are the reported error.
CSNK1A1/CRBN: Cereblon/Casein kinase I alpha (CSNK1A1/CRBN, Homo sapiens, UniProt P48729+Q96SW2)
Sequence of UniProt P35030 (whole entry, looked up): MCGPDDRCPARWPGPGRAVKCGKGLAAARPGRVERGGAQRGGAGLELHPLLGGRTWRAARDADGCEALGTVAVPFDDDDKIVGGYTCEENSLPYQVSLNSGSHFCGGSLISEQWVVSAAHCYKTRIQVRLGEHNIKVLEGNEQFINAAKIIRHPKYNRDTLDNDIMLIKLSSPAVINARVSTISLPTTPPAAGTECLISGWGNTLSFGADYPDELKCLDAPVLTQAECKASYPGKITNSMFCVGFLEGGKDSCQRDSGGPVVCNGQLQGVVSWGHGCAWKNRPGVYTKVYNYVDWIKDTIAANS
Sequence of UniProt P48729 (whole entry, looked up): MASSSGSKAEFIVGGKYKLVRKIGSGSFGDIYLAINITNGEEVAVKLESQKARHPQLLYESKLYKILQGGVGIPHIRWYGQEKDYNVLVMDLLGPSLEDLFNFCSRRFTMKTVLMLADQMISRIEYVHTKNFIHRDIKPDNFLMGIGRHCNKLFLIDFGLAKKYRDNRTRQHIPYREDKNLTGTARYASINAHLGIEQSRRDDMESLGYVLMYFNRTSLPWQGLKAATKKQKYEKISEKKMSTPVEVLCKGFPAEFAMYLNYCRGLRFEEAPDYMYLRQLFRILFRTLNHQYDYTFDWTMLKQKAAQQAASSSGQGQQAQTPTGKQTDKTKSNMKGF
Sequence of UniProt Q96SW2 (whole entry, looked up): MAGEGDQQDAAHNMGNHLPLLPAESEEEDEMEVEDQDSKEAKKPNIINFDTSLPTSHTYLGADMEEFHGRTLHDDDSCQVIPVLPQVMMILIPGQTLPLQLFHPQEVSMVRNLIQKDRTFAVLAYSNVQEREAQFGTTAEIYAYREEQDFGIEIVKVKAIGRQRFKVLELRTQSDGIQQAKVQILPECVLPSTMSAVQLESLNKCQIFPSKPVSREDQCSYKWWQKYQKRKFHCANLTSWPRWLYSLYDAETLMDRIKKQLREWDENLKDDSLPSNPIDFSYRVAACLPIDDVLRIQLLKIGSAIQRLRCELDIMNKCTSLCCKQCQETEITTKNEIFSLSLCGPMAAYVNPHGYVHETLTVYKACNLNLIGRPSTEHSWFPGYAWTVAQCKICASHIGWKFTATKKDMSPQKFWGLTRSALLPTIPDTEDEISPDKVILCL
Sequence of UniProt P48730 (whole entry, looked up): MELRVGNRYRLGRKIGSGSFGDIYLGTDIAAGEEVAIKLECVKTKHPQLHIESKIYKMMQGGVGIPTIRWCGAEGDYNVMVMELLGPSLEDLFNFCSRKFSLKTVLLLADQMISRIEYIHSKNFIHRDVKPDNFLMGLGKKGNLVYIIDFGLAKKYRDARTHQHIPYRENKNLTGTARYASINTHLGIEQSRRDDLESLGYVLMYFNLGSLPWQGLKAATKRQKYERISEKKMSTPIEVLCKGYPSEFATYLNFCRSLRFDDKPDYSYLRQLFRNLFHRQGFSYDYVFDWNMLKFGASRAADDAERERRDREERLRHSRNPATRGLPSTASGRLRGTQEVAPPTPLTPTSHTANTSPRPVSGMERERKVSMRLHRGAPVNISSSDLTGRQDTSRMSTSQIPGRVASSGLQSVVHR
Sequence of UniProt P43220 (whole entry, unmodified, looked up): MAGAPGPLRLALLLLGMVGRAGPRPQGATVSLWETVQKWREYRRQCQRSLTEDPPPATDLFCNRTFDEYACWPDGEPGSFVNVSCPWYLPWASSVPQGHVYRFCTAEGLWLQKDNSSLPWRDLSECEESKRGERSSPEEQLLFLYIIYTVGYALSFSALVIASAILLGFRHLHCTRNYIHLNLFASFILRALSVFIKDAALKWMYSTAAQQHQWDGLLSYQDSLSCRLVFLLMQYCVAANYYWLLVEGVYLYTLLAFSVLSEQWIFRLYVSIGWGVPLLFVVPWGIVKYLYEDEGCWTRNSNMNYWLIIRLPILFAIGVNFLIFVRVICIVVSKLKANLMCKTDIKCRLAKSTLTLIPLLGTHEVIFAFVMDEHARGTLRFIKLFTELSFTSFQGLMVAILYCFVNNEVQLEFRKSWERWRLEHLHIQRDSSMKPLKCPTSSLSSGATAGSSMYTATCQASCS
Sequence of UniProt Q86TI2 (whole entry, looked up): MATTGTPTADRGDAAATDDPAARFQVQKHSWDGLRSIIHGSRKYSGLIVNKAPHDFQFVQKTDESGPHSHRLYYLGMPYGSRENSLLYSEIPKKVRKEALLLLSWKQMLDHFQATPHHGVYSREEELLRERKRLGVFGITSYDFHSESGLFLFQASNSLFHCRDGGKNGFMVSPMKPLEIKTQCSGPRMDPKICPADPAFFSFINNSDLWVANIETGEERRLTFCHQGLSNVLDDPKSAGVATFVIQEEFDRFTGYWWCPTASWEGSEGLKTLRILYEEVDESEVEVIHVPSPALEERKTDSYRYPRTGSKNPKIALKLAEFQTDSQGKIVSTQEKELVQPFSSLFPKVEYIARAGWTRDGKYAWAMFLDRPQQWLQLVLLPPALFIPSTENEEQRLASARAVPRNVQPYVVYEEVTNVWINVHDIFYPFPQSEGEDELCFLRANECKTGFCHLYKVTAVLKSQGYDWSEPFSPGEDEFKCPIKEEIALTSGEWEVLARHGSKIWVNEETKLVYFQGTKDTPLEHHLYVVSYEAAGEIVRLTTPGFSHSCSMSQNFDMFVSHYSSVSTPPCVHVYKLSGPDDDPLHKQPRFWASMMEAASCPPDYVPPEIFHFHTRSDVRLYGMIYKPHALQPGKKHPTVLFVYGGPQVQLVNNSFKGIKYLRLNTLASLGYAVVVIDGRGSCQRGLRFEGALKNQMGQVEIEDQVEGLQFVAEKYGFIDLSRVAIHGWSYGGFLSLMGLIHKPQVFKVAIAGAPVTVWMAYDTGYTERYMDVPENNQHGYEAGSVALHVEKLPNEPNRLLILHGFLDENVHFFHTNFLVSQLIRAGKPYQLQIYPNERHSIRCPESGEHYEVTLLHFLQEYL
Sequence of UniProt O94900 (whole entry, looked up): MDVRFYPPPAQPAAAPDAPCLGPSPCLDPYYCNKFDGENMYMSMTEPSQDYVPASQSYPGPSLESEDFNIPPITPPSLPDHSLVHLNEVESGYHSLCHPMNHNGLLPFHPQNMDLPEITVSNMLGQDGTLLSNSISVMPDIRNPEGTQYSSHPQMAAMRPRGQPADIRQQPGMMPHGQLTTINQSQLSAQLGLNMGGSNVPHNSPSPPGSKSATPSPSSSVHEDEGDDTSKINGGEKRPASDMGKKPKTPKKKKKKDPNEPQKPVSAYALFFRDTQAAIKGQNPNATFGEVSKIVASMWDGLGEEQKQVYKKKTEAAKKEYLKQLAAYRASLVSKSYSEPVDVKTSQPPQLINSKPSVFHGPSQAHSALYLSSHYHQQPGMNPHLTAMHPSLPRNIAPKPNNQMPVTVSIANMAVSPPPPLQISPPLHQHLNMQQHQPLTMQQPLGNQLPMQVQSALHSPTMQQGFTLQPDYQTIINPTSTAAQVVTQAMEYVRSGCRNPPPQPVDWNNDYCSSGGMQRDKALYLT
Sequence of UniProt Q13526 (whole entry, looked up): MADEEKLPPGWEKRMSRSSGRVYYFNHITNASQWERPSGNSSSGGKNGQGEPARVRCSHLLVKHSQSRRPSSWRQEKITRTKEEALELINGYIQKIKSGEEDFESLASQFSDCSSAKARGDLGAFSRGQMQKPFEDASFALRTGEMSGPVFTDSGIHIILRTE

CCc1c(C(=O)Nc2ccc3c(c2)CN(C2CCC(=O)NC2=O)C3=O)[nH]c2c(CO)cccc12 (stereo not shown)  DC50 (CSNK1A1/CRBN; protein level, degrader, luciferase): 15.6 nM
CCC1(CC)CC(=O)N(C2CCOc3ccc(C(=O)NC4CC(C)(C)Oc5ccccc54)cc32)C(=N)N1 (stereo not shown)  Ki (plasmepsin X (Plasmodium knowlesi, UniProt A0A384K9C7); enzyme activity, inhibitor, peptide cleavage): 0.021 ± 0.004 nM
Cc1nn(-c2cccc(N)c2)c(=O)c2cnc(Nc3ccc(N4CCNCC4)cc3)nc12  IC50 (Casein kinase I isoform delta (CSNK1D, Homo sapiens, UniProt P48730); SelectScreen kinase): > 10000 nM
N#Cc1c(N)nc2c(c1-c1ccc(CO)o1)Cc1cc(O)ccc1-2  Kd (Thymocyte selection-associated high mobility group box protein TOX (Homo sapiens, UniProt O94900); binding, ITC): 1050 nM
COc1cc(C2C(NC(=O)c3ccc(NC(=O)OC(C)(C)C)cc3)(C(=O)O)C(c3ccc(OC(=O)c4cccs4)c(OC)c3)C2(NC(=O)c2ccc(NC(=O)OC(C)(C)C)cc2)C(=O)O)ccc1OC(=O)c1cccs1 (stereo not shown)  EC50 (Glucagon-like peptide 1 receptor (GLP1R, Homo sapiens, UniProt P43220, Q140A); cAMP, agonist): 28.2 nM
CCc1nc2cc3ccccc3cc2cc1C(=O)N1CCC[C@H]1C(=O)N[C@@H](C/C=C\C[C@H](NC(=O)[C@@H]1CCCN1C(=O)c1cc2cc3ccccc3cc2nc1CC)C(=O)N[C@@H](CCCCN)C(=O)NCCCN)C(=O)N[C@@H](CCCCN)C(=O)NCCCN  Kd ((CAG)10 RNA; SPR): 46 nM
CCC1(CC)C(=O)N(c2ccc(CC(=O)O)cc2)C1=O  Ki (Dipeptidyl peptidase 9 (DPP9, Homo sapiens, UniProt Q86TI2); enzyme activity, inhibitor, fluorescence): 919 nM
CCc1c(C(=O)Nc2ccc3c(c2)CN(C2CCC(=O)NC2=O)C3=O)[nH]c2c(CNC(C)=O)cccc12 (stereo not shown)  DC50 (CSNK1A1/CRBN; protein level, degrader, luciferase): 9.5 nM
NC(=O)[C@H](Cc1c[nH]c2ccccc12)NC(=O)[C@@H]1CCCCN1C(=O)[C@H](Cc1c[nH]c2cc(Cl)ccc12)NC(=O)CCl  DC50 (Peptidyl-prolyl cis-trans isomerase NIMA-interacting 1 (PIN1, Homo sapiens, UniProt Q13526); protein degradation, degrader; human cancer cell lines; 24 h): ~500 nM
Cc1nc(-c2c[nH]c(C(=O)Nc3ncccc3O)c2)cs1  Ki (Trypsin-3 (Homo sapiens, UniProt P35030); enzyme activity, inhibitor, mixed model kinetics; together with: substrate Z-GPR-pNA): 58900 nM and 58400 nM and 31300 nM and 38900 nM

For quick reference, copied from above:
CCC1(CC)C(=O)N(c2ccc(CC(=O)O)cc2)C1=O  Ki (Dipeptidyl peptidase 9 (DPP9, Homo sapiens, UniProt Q86TI2); enzyme activity, inhibitor, fluorescence): 919 nM
